Measured values gathered from unrelated publications.
Every numbered part comes from another study and shows a few of its results, in no order. Substitutions count along the parent as printed.

Study 1
Target: CCNB3, cyclin fold, Cln2 fusion (human)
Method: yeast growth competition, sequencing
Matrix: yeast
Notes: strong parent motif
Baseline: not given
Reading: higher = stronger binding
Parent: BRCA2 docking peptide (human); PSIKRNLLNEFDR
| Substitution | normalised enrichment score |
| --- | --- |
| PSIKRKLLNEFDR [N6K] | 0.176 |
| PSIKRGLLNEFDR [N6G] | -0.11 |
| FSIKRNLLNEFDR [P1F] | 1.04 |
| PSIKRNLLIEFDR [N9I] | 1.91 |
| PSIKINLLNEFDR [R5I] | 0.561 |
| PSIKRNLLNEFDG [R13G] | 1.01 |
| PSIKRNLLNEFDV [R13V] | 0.582 |
| PSIKRNLLNEFKR [D12K] | 0.386 |

Study 2
Target: Histone acetyltransferase KAT6A, winged helix 1, GST fusion (KAT6A, Homo sapiens, UniProt Q92794, residues 1-85)
Method: protein binding microarray
Form: double-stranded DNA, one strand shown
Matrix: in vitro
Tested at: not given
Notes: 8-mer, flanks averaged, mean of 2 arrays, mostly near background
Baseline: not given
Reading: higher = stronger binding
Target sequence (chain): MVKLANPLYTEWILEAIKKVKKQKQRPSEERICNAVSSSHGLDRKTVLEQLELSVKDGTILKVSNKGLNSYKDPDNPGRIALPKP
| Strand | E-score |
| --- | --- |
| CTTACACC | -0.147 |
| ACGAATAT | -0.128 |
| AGTTGATC | -0.146 |
| AGGCGTTC | -0.00564 |
| CGCCACAG | -0.0871 |
| AGAAATAT | -0.0127 |
| CTAGGGTC | -0.169 |
| CAATAACC | -0.0696 |

Study 3
Target: Prothrombin, mature alpha-thrombin (F2, Homo sapiens, UniProt P00734)
Method: aptamer microarray, sandwich
Form: DNA with 2'F-ANA
Matrix: in vitro
Tested at: 200 nM
Notes: whole 15-mer aptamer, many near background
With: Cy3 exosite-II aptamer, 400 nM
Reading: higher = stronger binding
Strand: GGTTGGTGTGGTTGG
| Modification | mean fluorescence intensity |
| --- | --- |
| 2'F-ANA at 3 5 6 10 13 | 55.6 a.u. |
| 2'F-ANA at 1 2 7 8 10 11 14 15 | 54.1 a.u. |
| 2'F-ANA at 2 4 5 6 9 13 15 | 56.7 a.u. |
| 2'F-ANA at 1 2 4 7 8 9 12 13 | 210 a.u. |
| 2'F-ANA at 4 5 7 9 10 11 13 | 54.6 a.u. |
| 2'F-ANA at 1 3 5 6 7 9 11 12 13 14 | 51.3 a.u. |
| 2'F-ANA at 1 2 3 4 5 7 9 10 12 13 | 47.6 a.u. |
| 2'F-ANA at 3 9 10 11 15 | 460 a.u. |
| 2'F-ANA at 3 5 6 9 12 13 | 152 a.u. |
| 2'F-ANA at 1 2 3 4 6 7 9 11 13 14 | 54.2 a.u. |
| 2'F-ANA at 2 3 5 11 14 | 54.9 a.u. |
| 2'F-ANA at 1 3 5 10 12 13 | 45.9 a.u. |

Further values, each from its own experiment
| Molecule | target | assay | test system | setting | how to read | endpoint | value |
| --- | --- | --- | --- | --- | --- | --- | --- |
| PhoQ, residues 284 288 289 292 302 303 SIHMAM | PhoP, residues 12 14 15 18 19 LHSVQ (Escherichia coli, UniProt P23836) | Sort-seq, refers to: YFP reporter | E. coli | PhoQ-PhoP variant library, with: 10 µM Mg2+ | baseline: high Mg2+ state, higher = stronger signaling | fold induction | 11.5 |

Some of these lines once more (study 1):
| Substitution | normalised enrichment score |
| --- | --- |
| PSIKRNLLIEFDR [N9I] | 1.91 |
| PSIKINLLNEFDR [R5I] | 0.561 |
| PSIKRNLLNEFDG [R13G] | 1.01 |
